Measured values collected from several papers.
Protocols differ between the studies behind these lines. ± gives the spread as reported.
Target: Adenosine receptor A2a (ADORA2A, Homo sapiens, UniProt P29274)

SMILES	observed	technique	medium	concentration	together with	quantity	result
CSc1nc2nc3c(c(O)n2n1)CN(Cc1ccccc1)CC3		radioligand displacement			[3H]ZM241385	ligand efficiency	0.36
Cc1ccc(C(=O)Nc2nc3ccccc3[nH]2)cc1C	binding	radioligand competition		10 µM	[3H]ZM241385	displacement	16 ± 4%
COc1cccc(Cn2c(=O)n(CC3CC3)c(=O)c3c2nc2cc(OC)ccn23)c1		radioligand binding	CHO cell membranes	1 µM	[3H]ZM241385	displacement	24%
CSc1ccc(CNc2nc3ccccc3n3cnnc23)cc1	binding	radioligand competition		30 µM	[3H]ZM241385	displacement	20 ± 4%
COc1ccc(N2CC(C(=O)NC(Cc3ccccc3)C(=O)O)CC2=O)cc1 (stereo not shown)		radioligand displacement			[3H]ZM241385	ligand efficiency	0.27
CN(C(=O)n1cnc(-c2ccc[n+]([O-])c2)c1)C1CCCCC1				concentration not given		inhibition	-2.48%
CCN1/C(=C/C(C)=O)Sc2ccc(F)cc21	binding			10 µM		inhibition	22.2%
CNC(=O)[C@@]12C[C@@H]1[C@@H](n1cnc3c(NCCc4ccc(O)c(OC)c4)nc(C#Cc4ccc(Cl)s4)nc31)[C@H](O)[C@@H]2O	binding	radioligand binding		concentration not given		activity class	inactive
Cc1ccc(C(=O)Nc2nc3ccccc3[nH]2)cc1	binding	radioligand competition		10 µM	[3H]ZM241385	displacement	21 ± 4%
Cc1csc(-c2coc3cc(OCC(=O)O)cc(C)c3c2=O)n1		radioligand displacement			[3H]ZM241385	ligand efficiency	0.33

A few entries again:
SMILES	observed	technique	medium	concentration	together with	quantity	result
CN(C(=O)n1cnc(-c2ccc[n+]([O-])c2)c1)C1CCCCC1				concentration not given		inhibition	-2.48%
